# Experimental data pooled from the literature.
# Observed: microbial growth
Structure (SMILES),organism,method,strain,time,setting,MIC
O=C(O)CN1C(=O)/C(=C/c2ccc(-c3ccc(N(c4ccccc4)c4ccccc4)cc3)cc2)SC1=S,Staphylococcus epidermidis,broth dilution,ATCC12228,,,0.98 mg/L
C=C/C=C(\C)CC[C@H]1C[C@H](O)CC(=O)O1,Salmonella enterica,broth dilution,ATCC14028 TYPHIMURIUM,,,128 mg/L
CC1(C)S[C@@H]2[C@H](NC(=O)[C@H](N)c3ccccc3)C(=O)N2[C@H]1C(=O)O,Escherichia coli,broth dilution,ATCC25922,,,21.5 µM
Cc1c(CN(C)C(=O)/C=C/c2cnc3c(c2)CCC(=O)N3)oc2ccccc12,Acinetobacter baumannii,broth dilution,,,,> 32 mg/L
C[C@H](NC(=O)CO/N=c1\cc2n(-c3ccc(Cl)cc3)c3ccccc3nc-2cc1Nc1ccc(Cl)cc1)C(=O)OC(C)(C)C,Mycobacterium avium,,ATCC700898,,,> 30 µM
CN[C@H](CC(C)C)C(=O)N[C@H]1C(=O)N[C@@H](CC(N)=O)C(=O)N[C@H]2C(=O)N[C@H]3C(=O)N[C@H](C(=O)N[C@H](C(=O)O)c4cc(O)cc(O)c4-c4cc3ccc4O)[C@H](O)c3ccc(c(Cl)c3)Oc3cc2cc(c3O[C@@H]2O[C@H](CO)[C@@H](O)[C@H](O)[C@H]2O[C@H]2C[C@](C)(N)[C@H](O)[C@H](C)O2)Oc2ccc(cc2Cl)[C@H]1O,Staphylococcus epidermidis,broth dilution,,20 h,clinical isolate,128 mg/L
O=C(O)CNC(=O)CO/N=c1\cc2n(-c3ccc(Cl)cc3)c3ccccc3nc-2cc1Nc1ccc(Cl)cc1,Mycobacterium avium,,ATCC700898,,,0.12 µM
Cc1[nH]c(C(=O)Nc2ccc(C(=O)NCC(=O)O)cc2N2CC[C@H](N)C2)c(Cl)c1Cl.Cl,Acinetobacter baumannii,broth dilution,ATCC19606,,,> 32 mg/L
C[C@@H]1[C@H](O)[C@@H](C)/C=C/C=C/C=C/C=C/C=C/C=C/C=C/[C@H](O[C@@H]2O[C@H](C)[C@@H](O)[C@H](N)[C@@H]2O)C[C@@H]2O[C@](O)(C[C@@H](O)C[C@@H](O)[C@H](O)CC[C@@H](O)C[C@@H](O)CC(=O)O[C@H]1C)C[C@H](O)[C@H]2C(=O)O,Clavispora lusitaniae,broth dilution,MY1396,,,0.5 mg/L
Cl.O=C(O)CNC(=O)c1ccc(NC(=O)c2cc(Br)c(Br)[nH]2)c(N2CCNCC2)c1,Acinetobacter baumannii,broth dilution,ATCC19606,,,> 32 mg/L
C[C@@H]1[C@H](O)[C@@H](C)/C=C/C=C/C=C/C=C/C=C/C=C/C=C/[C@H](O[C@@H]2O[C@H](C)[C@@H](O)[C@H](N)[C@@H]2O)C[C@@H]2O[C@](O)(C[C@@H](O)C[C@@H](O)[C@H](O)CC[C@@H](O)C[C@@H](O)CC(=O)O[C@H]1C)C[C@H](O)[C@H]2C(=O)O,Pichia kudriavzevii,broth dilution,ATCC34135,24 h,,4 mg/L
C[C@H](NC(=O)CO/N=c1\cc2n(-c3ccc(Cl)cc3)c3ccccc3nc-2cc1Nc1ccc(Cl)cc1)C(=O)O,Mycobacterium avium,,,,clinical isolate,> 30 µM
CC(C)(C)OC(=O)N[C@@H]1CCN(c2cc(C(=O)NCC(=O)O)ccc2NC(=O)c2cc(Br)c(Br)[nH]2)C1,Acinetobacter baumannii,broth dilution,ATCC19606,,,> 32 mg/L
CN[C@H](CC(C)C)C(=O)N[C@H]1C(=O)N[C@@H](CC(N)=O)C(=O)N[C@H]2C(=O)N[C@H]3C(=O)N[C@H](C(=O)N[C@H](C(=O)O)c4cc(O)cc(O)c4-c4cc3ccc4O)[C@H](O)c3ccc(c(Cl)c3)Oc3cc2cc(c3O[C@@H]2O[C@H](CO)[C@@H](O)[C@H](O)[C@H]2O[C@H]2C[C@](C)(N)[C@H](O)[C@H](C)O2)Oc2ccc(cc2Cl)[C@H]1O,Enterococcus faecalis,broth dilution,ATCC29212,20 h,,4 mg/L
Cc1[nH]c(C(=O)Nc2ccc(C(=O)NCc3n[nH]c(=O)o3)cc2N2CCN(C(=O)OC(C)(C)C)CC2)c(Cl)c1Cl,Enterococcus faecium,broth dilution,ATCC35667,,,32 mg/L
C[C@@H]1O[C@@H](OC[C@H]2O[C@@H](Oc3c(-c4ccc(O)c(O)c4)oc4cc(O)cc(O)c4c3=O)[C@H](O)[C@@H](O)[C@@H]2O)[C@H](O)[C@H](O)[C@H]1O,Streptococcus mutans,broth dilution,,24 h,,200 mg/L
C=CCO/N=c1\cc2n(-c3ccc(Cl)cc3)c3ccccc3nc-2cc1Nc1ccc(Cl)cc1,Mycobacterium avium,,,,clinical isolate,> 30 µM
Cc1[nH]c(C(=O)Nc2ccc(C(=O)NCc3n[nH]c(=O)o3)cc2N2CCNCC2)c(Cl)c1Cl.Cl,Klebsiella aerogenes,broth dilution,ATCC13408,,,> 32 mg/L
Clc1ccc(Nc2cc3nc4ccccc4n(-c4ccc(Cl)cc4)c-3c/c2=N\OCc2ccccc2)cc1,Mycobacterium avium,,,,clinical isolate,> 30 µM
Cc1[nH]c(C(=O)Nc2ccc(C(=O)NCC(=O)O)cc2N2CC[C@H](NC(=O)OC(C)(C)C)C2)c(Cl)c1Cl,Acinetobacter baumannii,broth dilution,ATCC19606,,,> 32 mg/L
O=C1OC[C@H]2OC(O)[C@H](O)[C@@H](O)[C@@H]2OC(=O)c2cc(O)c(O)c(O)c2-c2c(O)c(O)c3oc(=O)c4c(c(O)c(O)c5oc(=O)c2c3c54)-c2c1cc(O)c(O)c2O (mixture of isomers),Streptococcus mutans,broth dilution,,24 h,,100 mg/L
CC(C)(C)OC(=O)N1CCN(c2cc(C(=O)NCC(=O)O)ccc2NC(=O)c2cc(Br)c(Br)[nH]2)CC1,Klebsiella aerogenes,broth dilution,ATCC13408,,,> 32 mg/L
CN(Cc1ccc(C(C)(C)C)cc1)Cc1cccc2ccccc12,Trichophyton mentagrophytes,broth dilution,ATCC18748,72 h,,120 mg/L

# For quick reference, copied from above:
Structure (SMILES),organism,method,strain,time,setting,MIC
CC1(C)S[C@@H]2[C@H](NC(=O)[C@H](N)c3ccccc3)C(=O)N2[C@H]1C(=O)O,Escherichia coli,broth dilution,ATCC25922,,,21.5 µM
Cc1c(CN(C)C(=O)/C=C/c2cnc3c(c2)CCC(=O)N3)oc2ccccc12,Acinetobacter baumannii,broth dilution,,,,> 32 mg/L
C[C@H](NC(=O)CO/N=c1\cc2n(-c3ccc(Cl)cc3)c3ccccc3nc-2cc1Nc1ccc(Cl)cc1)C(=O)OC(C)(C)C,Mycobacterium avium,,ATCC700898,,,> 30 µM
